Assay results collected from several papers.
Numbered parts are unrelated; each lists some results of a single study.

Series 1 — method: protein-binding microarray; molecule type: double-stranded DNA, one strand shown; matrix: in vitro; tested at: 2540 nM top; notes: 60-bp whole probe; with: salmon DNA 0.4 mg/ml; baseline: random background probes; direction: higher = stronger binding; endpoint: fitted relative affinity; shared flanks, not repeated: GCCTAGCAC … GTCTTGATTCGCTTGACGCTGCTG
Target: Interferon regulatory factor 3, full length, phosphomimetic (IRF3, Homo sapiens, UniProt Q14653, residues 1-427, S386D/S396D/S398D/S402D/T404D/S405D)
Target sequence (chain): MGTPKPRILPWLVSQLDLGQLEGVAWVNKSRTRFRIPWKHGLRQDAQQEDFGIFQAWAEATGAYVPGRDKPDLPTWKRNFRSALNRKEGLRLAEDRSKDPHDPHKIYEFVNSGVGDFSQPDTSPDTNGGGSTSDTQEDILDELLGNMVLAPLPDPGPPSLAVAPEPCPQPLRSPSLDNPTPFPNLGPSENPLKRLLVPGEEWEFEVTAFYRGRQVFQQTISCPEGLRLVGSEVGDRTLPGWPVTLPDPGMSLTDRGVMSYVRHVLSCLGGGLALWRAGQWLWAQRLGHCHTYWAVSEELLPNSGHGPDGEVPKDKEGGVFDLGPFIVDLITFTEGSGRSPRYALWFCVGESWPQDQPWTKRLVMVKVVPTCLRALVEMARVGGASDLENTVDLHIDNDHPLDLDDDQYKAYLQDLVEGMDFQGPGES
CAAACACTAGTTTTTACTTTGTGCTAG: 1.6 z-score
GACGATTTCAGTTCCGCGACGTGCTAG: 2.78 z-score
ATAGGTTTCGGTCTCGGTTAGTGCTAG: 8.86 z-score
GACGATTTCAGTTTCGAGATGTGCTAG: 4.5 z-score
ATAGATTTCGGGTTTCGATTAGTGCTA: 3.42 z-score
GACGATATCGGTTATCGAGACGTGCTA: 1.11 z-score
GACGATTTCATTTCCGAGACGTGCTAG: 3.23 z-score
TTGGATCTCAGTATCGATTAGTGCTAG: 0.661 z-score
CTAGGTATCGGGACTGGGTTAGTGCTA: 1.28 z-score
CTAGATCTCAGTATCGATTAGTGCTAG: 0.986 z-score
GACGAATTCAGTTCCGAGACGTGCTAG: 1.46 z-score
GACGATATCGGGTTTGGAGACGTGCTA: 0.22 z-score
AAGTTTACCCATCTCCAGTAGTGCTAG: 2.13 z-score
GACGGACTGCTTCTACTGACGTGCTAG: -0.275 z-score
GACGATATCAGTATCGAAACGTGCTAG: 1.91 z-score
TCAGATTACATATATGTTACTGTGCTA: 1.13 z-score
GTAAGTTTCACTTTCCAAAGGTGCTAG: 9.17 z-score
GACGGTTTCGGTTCCGGGAAGTGCTAG: 10.5 z-score
TTAGATTTCCGGACTGGATTAGTGCTA: 1.34 z-score
GACGGTCTCGGTATCGGGCCGTGCTAG: 1.25 z-score

Series 2 — method: RNA Bind-n-Seq; molecule type: RNA; matrix: in vitro; tested at: 200 nM; notes: whole 134-nt RNA, ends assumed; with: 150 mM KCl; baseline: input library; direction: higher = stronger binding; endpoint: log2 enrichment
Target: Fragile X messenger ribonucleoprotein 1, C-terminal low-complexity region (Fmr1, Mus musculus, UniProt P35922)
Shared flanks, not repeated: GGGAGUUCUACAGUCCGACGAUC … UGGAAUUCUCGGGUGUCAAGG
AGUCCUGUGCUACACAUCGUAUGUACCGAAUCAAAUUUUUAAACCCCCAAAUUUAAAAAAGUAUUAUGUUACGCCGUUCGGAUCUGCACU: -0.128
CUGUGCUACACAUCGUAUGUACCGAAUCGGGGUUUUUUUGGGGUUUUUUUGGUUUUUUUGGGAAAGUAUUAUGUUACGCCGUUCGGAUCU: -0.208
CAAGUCCUGUGCUACACAUCGUAUGUACCGAAUCGGAAAGGAAAAAAAGGUUUGGAAAGUAUUAUGUUACGCCGUUCGGAUCUGCACUUC: -1.2
AGUCCUGUGCUACACAUCGUAUGUACCGAAUCGGGGAAAAAGGAAAAAGGGAAAAAGGAAAGUAUUAUGUUACGCCGUUCGGAUCUGCAC: -0.417
GUCCUGUGCUACACAUCGUAUGUACCGAAUCGGGGAGGGGUUUGGGGUUUUUUUGGGGAAAGUAUUAUGUUACGCCGUUCGGAUCUGCAC: 0.479
CCUCAAGUCCUGUGCUACACAUCGUAUGUACCGAAUCGGGCGGGCGGGGCGGAAAGUAUUAUGUUACGCCGUUCGGAUCUGCACUUCCAG: 0.972
GAUGAUUACUAUGGUUAUGAUUAUCACGACUAUCGUGGAGGCUAUGAAGAUCCCUACUACGGCUAUGAUGAUGGCUAUGCAGUAAGAGGA: -1.55
CCUCAAGUCCUGUGCUACACAUCGUAUGUACCGAAUCGGCGGGGCGGCGGGGAAAGUAUUAUGUUACGCCGUUCGGAUCUGCACUUCCAG: 0.379
AGUCCUGUGCUACACAUCGUAUGUACCGAAUCGGGGAAAGGGGAGGGGAAAAAGGGGAAAGUAUUAUGUUACGCCGUUCGGAUCUGCACU: 0.511
CAAGUCCUGUGCUACACAUCGUAUGUACCGAAUCGGGCCCGGGGCCCGGGCCCGGGAAAGUAUUAUGUUACGCCGUUCGGAUCUGCACUU: -1.04
GCAGGAAGUAAAAACAAAUGGAAAUGCUUCGGAUAGUCGCAGGGGUGGGGGUUGCUAAGGAAAGGGUGGGAUGGGAGUGGGUAAAGAGUU: 0.434
UCCUGUGCUACACAUCGUAUGUACCGAAUCGGGAAAAAGGGGAAAAAGGGGAAAAAGGGAAAGUAUUAUGUUACGCCGUUCGGAUCUGCA: -0.0132
CCUCAAGUCCUGUGCUACACAUCGUAUGUACCGAAUCGGCGGGCGGGCGGGGAAAGUAUUAUGUUACGCCGUUCGGAUCUGCACUUCCAG: 0.807
UGUGUGACUUCCUUGGAGAGAAGAUUGCAUCUGUUUUGGGUAUCAGCACCCCAAAGUACCAAUAUGCCAUUGAUGAAUAUUAUCGGAUGA: -0.283

Series 3 — method: universal PBM; molecule type: double-stranded DNA, one strand shown; matrix: in vitro; tested at: 600 nM; direction: higher = stronger binding; endpoint: E-score
Target: Sal-like protein 4, full length isoform A (SALL4, Homo sapiens, UniProt Q9UJQ4, residues 1-1053)
UniProt Q9UJQ4, sequence (whole entry, looked up): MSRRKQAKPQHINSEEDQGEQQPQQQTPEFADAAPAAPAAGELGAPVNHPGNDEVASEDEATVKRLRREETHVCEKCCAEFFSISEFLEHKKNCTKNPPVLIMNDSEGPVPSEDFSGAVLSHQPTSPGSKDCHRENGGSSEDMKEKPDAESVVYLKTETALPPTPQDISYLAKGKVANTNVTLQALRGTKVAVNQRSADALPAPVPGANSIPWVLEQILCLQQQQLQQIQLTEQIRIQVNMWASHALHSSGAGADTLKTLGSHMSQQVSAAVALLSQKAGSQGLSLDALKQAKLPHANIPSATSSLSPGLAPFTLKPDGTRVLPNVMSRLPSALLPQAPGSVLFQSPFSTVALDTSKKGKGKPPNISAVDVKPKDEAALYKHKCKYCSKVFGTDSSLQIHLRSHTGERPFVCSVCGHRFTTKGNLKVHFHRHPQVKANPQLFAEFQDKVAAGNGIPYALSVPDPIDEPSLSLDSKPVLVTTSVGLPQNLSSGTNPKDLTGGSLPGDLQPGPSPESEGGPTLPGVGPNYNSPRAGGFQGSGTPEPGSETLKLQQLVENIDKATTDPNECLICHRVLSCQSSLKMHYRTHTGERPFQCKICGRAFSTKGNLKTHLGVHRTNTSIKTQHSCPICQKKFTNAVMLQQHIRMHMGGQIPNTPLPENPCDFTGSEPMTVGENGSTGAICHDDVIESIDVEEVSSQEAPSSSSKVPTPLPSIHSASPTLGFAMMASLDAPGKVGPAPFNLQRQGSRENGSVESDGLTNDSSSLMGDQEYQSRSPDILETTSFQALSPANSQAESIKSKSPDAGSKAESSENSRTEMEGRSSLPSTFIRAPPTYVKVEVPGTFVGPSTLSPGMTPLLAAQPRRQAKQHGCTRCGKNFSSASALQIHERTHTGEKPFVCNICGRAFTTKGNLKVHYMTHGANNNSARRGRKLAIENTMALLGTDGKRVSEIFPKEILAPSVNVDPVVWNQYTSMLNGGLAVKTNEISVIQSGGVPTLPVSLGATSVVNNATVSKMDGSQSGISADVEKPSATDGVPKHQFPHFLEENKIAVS
Notes: 8-mer, flanks averaged, mean of replicates
GAGGCGGC: -0.211
TAATGTGA: 0.26
ATAAAGAG: 0.15
TCGTATCA: 0.109
AGAAATCG: 0.0669
ACGGTAAA: 0.185
CGGGAGAC: -0.192
GCCTCCCA: -0.264
GCCGCACA: -0.149
GCTAATAA: 0.275
ATAGTACA: 0.0967
GACCCCGA: -0.251
CTAATAGA: 0.248
AACAACAT: 0.203
CATTCAAA: 0.174
GAGCGGGA: -0.149
ATTGAATA: 0.402
CTCTTGCA: -0.16
AGTCAACC: -0.0997
CTAACAGC: -0.0735
ACCGGGTA: -0.256
AATTTGTC: 0.124
AGTGATTC: 0.034

Series 4 — method: protein binding microarray; molecule type: double-stranded DNA, one strand shown; matrix: in vitro; tested at: not given; baseline: not given; direction: higher = stronger binding; endpoint: E-score
Target: Histone acetyltransferase KAT6A, winged helix 2, GST fusion (KAT6A, Homo sapiens, UniProt Q92794, residues 85-181)
Notes: 8-mer, flanks averaged, mean of 2 arrays, mostly near background
Construct (chain): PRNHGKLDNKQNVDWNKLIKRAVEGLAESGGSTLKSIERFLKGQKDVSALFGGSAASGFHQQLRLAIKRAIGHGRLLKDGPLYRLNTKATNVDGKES
GTGCCGAA: 0.0518
GACGACGC: -0.0557
AAGTAAAC: -0.0976
AAACCTTA: 0.0168
TAAGCCGA: 0.116
ACGGATGC: 0.0506
AACAACCA: 0.192
GATATACA: -0.158
GGCGACGA: -0.00471
GAGGACGA: 0.197
ACCGCCGC: 0.145
TGGTACCA: 0.0931
CCTGTGAG: -0.00328
AATTAACA: 0.0501
ACTCTTCG: -0.129
AAGCGAAC: -0.0139
TAGATGGA: -0.0246
ACGATGCC: -0.0222
AATCCCCC: -0.0855
AATGAGAC: -0.259
CATCTCCG: 0.124

Series 5 — method: RNA Bind-n-Seq; molecule type: RNA; matrix: in vitro; tested at: 365 nM; baseline: no-protein control; direction: higher = stronger binding; endpoint: RBNS enrichment (R)
Target: RNA binding protein fox-1 homolog 2, RRM domain, GST-SBP tag (RBFOX2, Homo sapiens, UniProt O43251-10, residues 100-194)
Notes: natural RNA segment, single round, ends assumed
Shared flanks, not repeated: GGGAGUUCUACAGUCCGACGAUC … UGGAAUUCUCGGGUGCCAA
Construct (chain): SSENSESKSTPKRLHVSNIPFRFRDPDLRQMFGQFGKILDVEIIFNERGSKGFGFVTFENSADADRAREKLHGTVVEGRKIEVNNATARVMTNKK
AUCUUAGAUUGCCACUGCUUUCAUUGAAGACCCUCAAUGCCAAGAAACGUGUCCCUGGCCCAUAUUAAUCCCUCGUGUGUCCAUAAUUAGGGUCCACGCCCAUGUACCUG: 0.25
UCUGUUAGGGAAAUCACCAGCUUUGGCAUCUUAACAACAAACAGUGGAUGGGUAAUUUUUAUUUCUGAUACGCAUCUUUAGAGUCAAAUAUAUCUUUUCCCUGUACUCCU: 1.65
UGACUUGCACAAUUCUUUGGGAAGAAACUGCACACCCAUAGGACAGUCGAUAAGGCUGAGUCGGGGAGGCUCAGACCAUUGAGGCUUGAAAUUGCAAAACUCUUGUAGCU: 0.444
CGCUAUAGCUUUCUGUUGGCAAAUUUUCUCAAAAGCACUCUCUUUAAUCAGAUUAACUUCUUAAACUGCUUAAUUCUCAUCGCUUCUUAAAACUAGGGUGGUUUGCAGGU: 0.412
GCUUUGGCCUGGAAAAUAAGCACUGGCCUGCAUGCCUAGAACCUGAGUGAAGGCAGUCAACAUCCUAGUAUGAAUCAGACCUAGCAGAAAUGUAAAUUAUUUCAAGUACU: 1.87
AAUGUAACUAUUUAGCCCUGGAUUAUACAUACUGUCCAAUUUUCAUUAAAUUUUUGUCUUAUAACUAUUGAAGUUUGGUUAAUAUCUGCUUUACAAAAUUGGUGGGGGUA: 0.763
UAUAAGAGAACUAAUUUUUCCAUUUGCAUAUUAAUAUGUUCCUCUAUACAUGUAAAGACACAGUGGCUCUGUGUGUCAUCAAGCAGCUGUAUUUUAUGUAUGCUUUACUG: 0.622
CUGGGAACUCUCCCAUUUUCAGGUUUCUAGAGCUGUCGAUAAAAUCCUGUGAACUGAGAGCGAGGAGCAGUGUAGGAAAUUGCAAUGUGUGGUUCAUGCAUUGUCUUUGA: 0.419
CAUCCCAAACCCACCUCUUGUCUCCAGCCAUGCCCAGGAUCAAUUCUAGAAUCAGAGGCUACCCCUGCCUGUGUGGGGAGGGCCUUUGCUGGCAAGAGAAGCUCAGGCUC: 0.397
ACAAUGACGCAUUUUAAUCUACCUUUGUCUUAAUUUACAGCAGGUUUUGUAUGAAUUUUUAACCUUUUAACAAACUCCCAAAUCUGGUUGAUGCCUUUGACAGUGAUGAA: 1
CAGUGCUGCGGCGCUGUCUUUGCAGCAUUGCCAUGUCACCGUAGCCCCCUUCACUCUUGGAAGUUUGGGGCUUCAAGGUUUAUUCUGGCAAGAACACCUCGGAGCCACUG: 0.267
GGAGCACUGUGGGGACGGACUCCGCCUGCUGUUCCCGCGCUGAGCUACAGGACUCCCGAGUGUGAGCCGCGGUUCCUCUGUUGCAGCGCAGCCGUGUGUGCUGUGGAGCC: 0.219

Further values, each from its own experiment
PhoQ, residues 284 288 289 292 302 303 NSMLDC — fold induction (PhoP, residues 12 14 15 18 19 GQAIL (Escherichia coli, UniProt P23836); Sort-seq, refers to: YFP reporter; E. coli; PhoQ-PhoP variant library, with: 10 µM Mg2+; baseline: high Mg2+ state, higher = stronger signaling): 13.2

For quick reference, copied from above (series 5):
GGAGCACUGUGGGGACGGACUCCGCCUGCUGUUCCCGCGCUGAGCUACAGGACUCCCGAGUGUGAGCCGCGGUUCCUCUGUUGCAGCGCAGCCGUGUGUGCUGUGGAGCC: 0.219
AAUGUAACUAUUUAGCCCUGGAUUAUACAUACUGUCCAAUUUUCAUUAAAUUUUUGUCUUAUAACUAUUGAAGUUUGGUUAAUAUCUGCUUUACAAAAUUGGUGGGGGUA: 0.763
CUGGGAACUCUCCCAUUUUCAGGUUUCUAGAGCUGUCGAUAAAAUCCUGUGAACUGAGAGCGAGGAGCAGUGUAGGAAAUUGCAAUGUGUGGUUCAUGCAUUGUCUUUGA: 0.419
CGCUAUAGCUUUCUGUUGGCAAAUUUUCUCAAAAGCACUCUCUUUAAUCAGAUUAACUUCUUAAACUGCUUAAUUCUCAUCGCUUCUUAAAACUAGGGUGGUUUGCAGGU: 0.412
CAGUGCUGCGGCGCUGUCUUUGCAGCAUUGCCAUGUCACCGUAGCCCCCUUCACUCUUGGAAGUUUGGGGCUUCAAGGUUUAUUCUGGCAAGAACACCUCGGAGCCACUG: 0.267
UGACUUGCACAAUUCUUUGGGAAGAAACUGCACACCCAUAGGACAGUCGAUAAGGCUGAGUCGGGGAGGCUCAGACCAUUGAGGCUUGAAAUUGCAAAACUCUUGUAGCU: 0.444
CAUCCCAAACCCACCUCUUGUCUCCAGCCAUGCCCAGGAUCAAUUCUAGAAUCAGAGGCUACCCCUGCCUGUGUGGGGAGGGCCUUUGCUGGCAAGAGAAGCUCAGGCUC: 0.397
AUCUUAGAUUGCCACUGCUUUCAUUGAAGACCCUCAAUGCCAAGAAACGUGUCCCUGGCCCAUAUUAAUCCCUCGUGUGUCCAUAAUUAGGGUCCACGCCCAUGUACCUG: 0.25
UAUAAGAGAACUAAUUUUUCCAUUUGCAUAUUAAUAUGUUCCUCUAUACAUGUAAAGACACAGUGGCUCUGUGUGUCAUCAAGCAGCUGUAUUUUAUGUAUGCUUUACUG: 0.622
GCUUUGGCCUGGAAAAUAAGCACUGGCCUGCAUGCCUAGAACCUGAGUGAAGGCAGUCAACAUCCUAGUAUGAAUCAGACCUAGCAGAAAUGUAAAUUAUUUCAAGUACU: 1.87
